Experimental data collected from several papers.
Each line is one published result; not all experiments were run side by side. Numbers after ± are the reported error.

SMILES	test	system	conditions	Cmax
C[C@H](NC(=O)/C(C#N)=C/c1cccc(Br)n1)c1ccccc1	LC-MS/MS	patients, plasma	oral, 4 mg/kg, cycle 1 day 8	23.6 ng/mL
CCc1nc(C(N)=O)c(Nc2ccc(N3CCC(N4CCN(C)CC4)CC3)c(OC)c2)nc1NC1CCOCC1		patients, plasma	oral, 40 mg once daily, cycle 1 day 15, median	106 ng/mL
OC[C@H]1O[C@@H](c2ccc(F)c(Cc3cc4ccccc4s3)c2)[C@H](O)[C@@H](O)[C@@H]1O		Japanese type 2 diabetes patients, plasma	oral, 25 mg/day, day 14	694 ± 174 ng/mL
COc1nnc2ccc(N3CCC(c4ccc(OCCN5CCN(C)C(=O)[C@H]5C)cc4)CC3)nn12		patients, plasma	oral, 15 mg twice daily, multiple dose, monotherapy	106 nM
N[C@@H]1c2ccccc2OC12CCN(c1cnc3c(N4CCCc5ncccc54)n[nH]c3n1)CC2		advanced metastatic solid tumour patients, plasma	oral, 75 mg once daily, cycle 1 day 15, geometric mean	1400 ng/mL
O=C(c1cccnc1-c1ccncc1)N1CCC(O)(Cc2ccccc2)CC1		healthy Japanese adults, plasma	oral, 300 mg twice daily, day 21	2060 ng/mL
CCNC(=O)[C@@H]1CCCN1C(=O)[C@H](CCCNC(=N)N)NC(=O)[C@H](CC(C)C)NC(=O)[C@@H](CC(C)C)NC(=O)[C@H](Cc1ccc(O)cc1)NC(=O)[C@H](CO)NC(=O)[C@H](Cc1c[nH]c2ccccc12)NC(=O)[C@H](Cc1c[nH]cn1)NC(=O)[C@@H]1CCC(=O)N1		healthy premenopausal women, plasma	intramuscular, 3.75 mg monthly depot, day 1	17.5 ± 2.7 ng/mL
COc1c(O)cc(C(=O)O)cc1O		broiler chickens, serum	oral, in feed, 2000 mg/kg feed, 24 h, corn diet, no tannins	100 ± 40 nM
CCCCCCCOc1ccc(CCC(N)(CO)CO)cc1C(F)(F)F.Cl		healthy men, plasma	oral, 0.75 mg, day 1	0.337 ng/mL
C[C@@H]1CCO[C@H]2Cn3cc(C(=O)NCc4ccc(F)cc4F)c(=O)c(O)c3C(=O)N12	population PK, post-hoc	children, 20 to <25 kg, plasma	oral, 30 mg dispersible tablet, steady state, geometric mean	6620 ng/mL

For quick reference, copied from above:
SMILES	test	system	conditions	Cmax
CCCCCCCOc1ccc(CCC(N)(CO)CO)cc1C(F)(F)F.Cl		healthy men, plasma	oral, 0.75 mg, day 1	0.337 ng/mL
